Assay results of several laboratories.
Compare with care: the assays were run in different laboratories. Values joined by “and” are separate records of one study, mostly repeats; a detail may differ. ± gives the spread as reported.
BLK SH2 domain: Tyrosine-protein kinase Blk, SH2 domain (BLK, Homo sapiens, UniProt P51451)
Chain of UniProt P51451 (whole entry, looked up): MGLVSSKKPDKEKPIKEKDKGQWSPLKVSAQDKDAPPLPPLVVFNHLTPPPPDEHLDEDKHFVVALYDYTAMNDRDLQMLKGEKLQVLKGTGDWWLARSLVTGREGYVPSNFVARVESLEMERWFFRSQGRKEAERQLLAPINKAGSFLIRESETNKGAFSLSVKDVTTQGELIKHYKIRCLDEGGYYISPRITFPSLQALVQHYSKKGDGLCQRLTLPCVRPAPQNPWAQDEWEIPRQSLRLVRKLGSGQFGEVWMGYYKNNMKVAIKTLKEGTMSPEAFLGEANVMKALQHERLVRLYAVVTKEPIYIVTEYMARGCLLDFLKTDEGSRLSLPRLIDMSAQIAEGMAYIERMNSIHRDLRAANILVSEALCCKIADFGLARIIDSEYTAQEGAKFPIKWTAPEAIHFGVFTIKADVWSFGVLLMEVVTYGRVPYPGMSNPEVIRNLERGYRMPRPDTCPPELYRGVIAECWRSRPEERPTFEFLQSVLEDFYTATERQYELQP
YES1 SH2 domain: Tyrosine-protein kinase Yes, SH2 domain (YES1, Homo sapiens, UniProt P07947)
Chain of UniProt P07947 (whole entry, looked up): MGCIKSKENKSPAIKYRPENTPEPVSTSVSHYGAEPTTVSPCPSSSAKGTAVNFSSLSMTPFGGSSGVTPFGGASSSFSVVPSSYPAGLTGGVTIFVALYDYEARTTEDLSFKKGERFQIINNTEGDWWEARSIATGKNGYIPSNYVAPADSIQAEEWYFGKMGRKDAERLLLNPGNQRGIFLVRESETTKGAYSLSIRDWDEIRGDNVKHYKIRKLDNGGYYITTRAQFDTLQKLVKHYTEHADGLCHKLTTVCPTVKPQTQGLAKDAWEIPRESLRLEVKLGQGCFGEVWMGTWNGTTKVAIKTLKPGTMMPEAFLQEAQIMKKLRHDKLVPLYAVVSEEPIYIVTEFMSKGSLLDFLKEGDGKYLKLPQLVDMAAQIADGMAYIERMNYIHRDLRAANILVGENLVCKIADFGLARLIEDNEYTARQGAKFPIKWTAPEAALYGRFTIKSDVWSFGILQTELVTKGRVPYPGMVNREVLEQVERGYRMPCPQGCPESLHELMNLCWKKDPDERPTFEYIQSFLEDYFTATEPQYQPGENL
Chain of UniProt Q8LBL5 (whole entry, unmodified, looked up): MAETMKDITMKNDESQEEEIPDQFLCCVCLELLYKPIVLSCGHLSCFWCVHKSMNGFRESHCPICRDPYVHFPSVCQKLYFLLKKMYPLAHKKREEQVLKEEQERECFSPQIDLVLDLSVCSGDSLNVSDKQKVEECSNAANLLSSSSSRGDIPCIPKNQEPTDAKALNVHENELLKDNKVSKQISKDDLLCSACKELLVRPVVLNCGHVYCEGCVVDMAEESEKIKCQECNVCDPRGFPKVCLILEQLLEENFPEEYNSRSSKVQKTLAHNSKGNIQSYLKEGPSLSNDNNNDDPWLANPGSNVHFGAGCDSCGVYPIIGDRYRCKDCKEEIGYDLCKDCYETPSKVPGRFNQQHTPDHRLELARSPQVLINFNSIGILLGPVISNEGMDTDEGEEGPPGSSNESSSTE
Chain of UniProt Q9EP73 (whole entry, looked up): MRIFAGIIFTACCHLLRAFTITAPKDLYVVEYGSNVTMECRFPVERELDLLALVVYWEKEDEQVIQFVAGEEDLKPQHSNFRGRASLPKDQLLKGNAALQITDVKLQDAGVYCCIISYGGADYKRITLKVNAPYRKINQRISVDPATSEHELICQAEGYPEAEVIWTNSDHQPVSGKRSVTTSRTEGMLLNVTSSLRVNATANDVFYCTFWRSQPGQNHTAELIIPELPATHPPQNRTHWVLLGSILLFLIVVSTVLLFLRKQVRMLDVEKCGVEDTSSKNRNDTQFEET
Chain of UniProt Q70CQ1 (whole entry, looked up): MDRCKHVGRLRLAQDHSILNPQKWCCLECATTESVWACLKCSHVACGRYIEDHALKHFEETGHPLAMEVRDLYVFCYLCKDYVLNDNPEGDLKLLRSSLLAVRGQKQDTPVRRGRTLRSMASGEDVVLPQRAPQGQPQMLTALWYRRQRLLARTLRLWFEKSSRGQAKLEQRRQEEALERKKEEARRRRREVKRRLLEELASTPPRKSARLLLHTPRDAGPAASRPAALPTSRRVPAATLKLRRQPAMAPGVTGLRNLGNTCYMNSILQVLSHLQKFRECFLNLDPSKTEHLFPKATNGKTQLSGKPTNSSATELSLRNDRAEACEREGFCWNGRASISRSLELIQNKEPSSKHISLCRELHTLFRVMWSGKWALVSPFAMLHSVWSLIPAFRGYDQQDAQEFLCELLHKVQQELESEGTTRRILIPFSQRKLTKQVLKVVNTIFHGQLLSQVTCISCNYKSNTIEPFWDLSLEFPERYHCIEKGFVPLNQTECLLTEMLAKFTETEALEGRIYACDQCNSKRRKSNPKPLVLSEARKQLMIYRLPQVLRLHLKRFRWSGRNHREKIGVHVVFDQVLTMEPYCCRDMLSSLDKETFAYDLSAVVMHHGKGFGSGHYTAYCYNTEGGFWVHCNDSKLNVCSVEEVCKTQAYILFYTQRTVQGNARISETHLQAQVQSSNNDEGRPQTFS
Chain of UniProt P03023 (whole entry, unmodified, looked up): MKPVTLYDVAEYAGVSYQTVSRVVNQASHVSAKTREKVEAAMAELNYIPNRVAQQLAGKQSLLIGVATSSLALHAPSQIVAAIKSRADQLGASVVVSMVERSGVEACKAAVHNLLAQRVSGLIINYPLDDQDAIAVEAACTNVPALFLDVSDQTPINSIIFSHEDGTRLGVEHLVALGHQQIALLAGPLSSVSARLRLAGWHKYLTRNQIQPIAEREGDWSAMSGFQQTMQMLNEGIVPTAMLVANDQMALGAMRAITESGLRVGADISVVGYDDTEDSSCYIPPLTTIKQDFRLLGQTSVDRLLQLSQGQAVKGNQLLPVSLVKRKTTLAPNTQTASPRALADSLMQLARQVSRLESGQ
Chain of UniProt P78356 (whole entry, looked up): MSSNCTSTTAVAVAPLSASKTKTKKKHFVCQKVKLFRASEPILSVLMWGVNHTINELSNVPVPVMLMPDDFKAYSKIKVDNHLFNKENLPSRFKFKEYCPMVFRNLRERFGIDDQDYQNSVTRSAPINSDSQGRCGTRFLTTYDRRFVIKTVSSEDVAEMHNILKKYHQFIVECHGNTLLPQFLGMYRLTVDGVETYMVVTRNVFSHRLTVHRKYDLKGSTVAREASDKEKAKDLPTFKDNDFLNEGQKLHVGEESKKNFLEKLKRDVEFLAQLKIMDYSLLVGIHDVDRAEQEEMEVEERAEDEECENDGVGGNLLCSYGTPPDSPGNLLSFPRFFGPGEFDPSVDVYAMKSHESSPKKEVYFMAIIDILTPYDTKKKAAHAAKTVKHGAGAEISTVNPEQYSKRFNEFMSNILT
Chain of UniProt P21553 (whole entry, unmodified, looked up): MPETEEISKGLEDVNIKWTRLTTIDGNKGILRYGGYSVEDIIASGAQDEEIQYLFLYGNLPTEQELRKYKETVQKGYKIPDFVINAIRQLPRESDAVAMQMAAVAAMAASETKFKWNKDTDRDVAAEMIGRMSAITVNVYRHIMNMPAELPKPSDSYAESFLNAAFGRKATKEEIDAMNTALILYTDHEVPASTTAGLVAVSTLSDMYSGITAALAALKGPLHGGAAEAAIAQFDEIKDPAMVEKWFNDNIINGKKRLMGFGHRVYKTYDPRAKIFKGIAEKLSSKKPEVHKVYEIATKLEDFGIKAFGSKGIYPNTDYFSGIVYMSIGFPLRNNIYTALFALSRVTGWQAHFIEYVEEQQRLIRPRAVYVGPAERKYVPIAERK
Chain of UniProt P40874 (whole entry, looked up): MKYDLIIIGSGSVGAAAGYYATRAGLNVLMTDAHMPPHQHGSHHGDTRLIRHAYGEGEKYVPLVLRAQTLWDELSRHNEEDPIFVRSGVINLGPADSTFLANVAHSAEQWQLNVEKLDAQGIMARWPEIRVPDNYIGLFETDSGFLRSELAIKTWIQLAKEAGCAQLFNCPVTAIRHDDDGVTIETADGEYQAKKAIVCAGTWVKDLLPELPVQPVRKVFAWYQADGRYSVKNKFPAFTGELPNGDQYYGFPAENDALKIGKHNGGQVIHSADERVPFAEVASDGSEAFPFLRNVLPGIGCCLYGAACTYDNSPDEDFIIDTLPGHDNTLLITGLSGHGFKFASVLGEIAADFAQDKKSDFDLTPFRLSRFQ
Chain of UniProt Q13094 (whole entry, looked up): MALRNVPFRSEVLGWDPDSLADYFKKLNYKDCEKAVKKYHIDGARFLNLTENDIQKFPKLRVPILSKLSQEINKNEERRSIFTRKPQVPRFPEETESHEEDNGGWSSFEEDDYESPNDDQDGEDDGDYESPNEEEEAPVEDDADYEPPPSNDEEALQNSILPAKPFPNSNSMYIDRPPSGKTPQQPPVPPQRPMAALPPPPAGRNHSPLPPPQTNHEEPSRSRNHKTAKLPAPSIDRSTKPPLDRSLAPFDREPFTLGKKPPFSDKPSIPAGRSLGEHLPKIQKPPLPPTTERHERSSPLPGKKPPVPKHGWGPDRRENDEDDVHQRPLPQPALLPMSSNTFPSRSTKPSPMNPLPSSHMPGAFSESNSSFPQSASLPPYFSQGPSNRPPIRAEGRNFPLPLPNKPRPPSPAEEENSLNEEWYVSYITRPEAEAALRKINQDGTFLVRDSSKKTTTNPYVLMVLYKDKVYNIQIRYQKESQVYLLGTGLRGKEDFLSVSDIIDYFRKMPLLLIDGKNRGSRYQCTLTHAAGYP

Compound	target	test	test system	setting	Kd
CC[C@H](C)[C@H](NC(=O)[C@H](Cc1ccc(O)cc1)NC(=O)[C@H](CCC(=O)O)NC(=O)[C@H](Cc1c[nH]cn1)NC(=O)CNC(=O)[C@H](CC(=O)O)NC(=O)[C@H](CO)NC(=O)[C@H](CO)NC(=O)[C@@H](NC(=O)c1ccc2c(c1)C(=O)OC21c2ccc(N(C)C)cc2Oc2cc(N(C)C)ccc21)C(C)C)C(=O)N[C@@H](Cc1ccc(OP(=O)(O)O)cc1)C(=O)N[C@H](C(=O)N[C@@H](CC(=O)O)C(=O)N1CCC[C@H]1C(=O)N[C@@H](CCSC)C(=O)N[C@@H](CCC(N)=O)C(=O)N[C@@H](CC(C)C)C(=O)N1CCC[C@H]1C(=O)N[C@@H](CC(=O)O)C(=O)O)C(C)C	BLK SH2 domain	binding			1.9 µM
CC(C)S[C@@H]1O[C@H](CO)[C@H](O)[C@H](O)[C@H]1O	lacI (Escherichia coli, UniProt P03023, D149C/N125C)				5.2 ± 0.2 µM
CSCC[C@H](NC(=O)[C@H](Cc1ccc(OP(=O)(O)O)cc1)NC(=O)CNC(=O)CNC(=O)[C@H](CC(=O)O)NC(=O)[C@H](CO)NC(=O)[C@H](CCC(=O)O)NC(=O)CNC(=O)[C@@H](NC(=O)[C@H](CC(C)C)NC(=O)[C@H](CO)NC(=O)c1ccc2c(c1)C(=O)OC21c2ccc(N(C)C)cc2Oc2cc(N(C)C)ccc21)[C@@H](C)O)C(=O)N[C@@H](CC(=O)O)C(=O)N[C@@H](CCSC)C(=O)N[C@@H](CO)C(=O)N[C@@H](CCCCN)C(=O)N[C@@H](CC(=O)O)C(=O)N[C@@H](CCC(=O)O)C(=O)N[C@@H](CC(=O)O)C(=O)O	BLK SH2 domain	binding			0.614 µM
CN(CC(=O)O)C(=N)NP(=O)(O)O	CKMT1A (Homo sapiens, UniProt P12532, H99A)	microscale thermophoresis		pH 7.0, H61A mutant, no substrate	328 ± 201 µM
CC[C@H](C)[C@H](NC(=O)[C@H](CC(=O)O)NC(=O)[C@H](C)NC(=O)[C@H](Cc1ccc(OP(=O)(O)O)cc1)NC(=O)[C@H](CCCCN)NC(=O)[C@@H](NC(=O)[C@H](CC(=O)O)NC(=O)CNC(=O)[C@H](CCCCN)NC(=O)[C@H](CCSC)NC(=O)[C@H](CC(=O)O)NC(=O)[C@H](CC(C)C)NC(=O)[C@H](CCSC)NC(=O)c1ccc2c(c1)C(=O)OC21c2ccc(N(C)C)cc2Oc2cc(N(C)C)ccc21)C(C)C)C(=O)N[C@@H](CCC(=O)O)C(=O)N[C@@H](CO)C(=O)N[C@@H](CO)C(=O)N[C@@H](CC(N)=O)C(=O)N[C@@H](CC(=O)O)C(=O)O	YES1 SH2 domain	binding			1.48 µM
NCCCC[C@H](NC(=O)[C@@H](N)Cc1ccccc1)C(=O)N[C@@H](Cc1ccccc1)C(=O)O	E3 ubiquitin-protein ligase PRT1 (PRT1, Arabidopsis thaliana, UniProt Q8LBL5)	ITC		pH 7.5, 25 °C	3.48 ± 0.497 µM
CC(=O)CCCNC(=O)CCNC(=O)[C@H](O)C(C)(C)COP(=O)(O)OP(=O)(O)OC[C@H]1O[C@@H](n2cnc3c(N)ncnc32)[C@H](O)[C@@H]1OP(=O)(O)O	gltA, with oxaloacetate (Thermoplasma acidophilum, UniProt P21553, W116F/W18F/W246F)	fluorescence titration		20 °C, with: oxaloacetate	8.9 ± 0.3 µM
NCCCC[C@H](N)C(=O)O	Uncharacterized protein (Pelagibacter ubique, UniProt Q4FM26)	isothermal titration calorimetry	Candidatus Pelagibacter ubique	direct titration	0.195 ± 0.126 µM
NCCCC[C@H](NC(=O)[C@@H](N)Cc1ccc(O)cc1)C(=O)N[C@@H](Cc1ccccc1)C(=O)O	E3 ubiquitin-protein ligase PRT1 (PRT1, Arabidopsis thaliana, UniProt Q8LBL5, I333A)	binding, ITC		pH 7.5, 25 °C, full-length I333A mutant	13.7 ± 1.68 µM
O=C(O)CNC(=O)c1cccnc1	Ubiquitin carboxyl-terminal hydrolase 49, ZnF-UBD domain (USP49, Homo sapiens, UniProt Q70CQ1)				> 1000 µM
Nc1ncnc2c1ncn2[C@@H]1O[C@H](COP(=O)(O)OP(=O)(O)NP(=O)(O)O)[C@@H](O)[C@H]1O	Cell cycle histidine kinase CckA, cytoplasmic region (Caulobacter vibrioides, UniProt Q9X688)	isothermal titration calorimetry	Caulobacter crescentus	12 °C, with: without c-di-GMP	10 µM and 9.7 µM
CSCC[C@H](NC(=O)CNC(=O)[C@H](Cc1ccccc1)NC(=O)[C@H](CC(=O)O)NC(=O)CNC(=O)c1ccc2c(c1)C(=O)OC21c2ccc(N(C)C)cc2Oc2cc(N(C)C)ccc21)C(=O)N[C@@H](CO)C(=O)N[C@@H](CCCNC(=N)N)C(=O)N[C@@H](CC(=O)O)C(=O)N[C@H](C(=O)N[C@@H](Cc1ccc(OP(=O)(O)O)cc1)C(=O)N[C@@H](CO)C(=O)N[C@H](C(=O)N[C@@H](CC(=O)O)C(=O)N[C@@H](Cc1ccc(O)cc1)C(=O)N[C@@H](Cc1ccc(O)cc1)C(=O)N[C@@H](CCCNC(=N)N)C(=O)N[C@H](C(=O)N[C@@H](CC(=O)O)C(=O)O)C(C)C)[C@@H](C)O)C(C)C	Lymphocyte cytosolic protein 2, SH2 domain (Homo sapiens, UniProt Q13094)	binding			1.02 µM
CC[C@@H](C)[C@@H](NC(=O)[C@@H](Cc1ccc(O)cc1)NC(=O)[C@H]1CCCN1C(=O)[C@@H](CCCNC(=N)N)NC(=O)[C@H](N)Cc1c[nH]cn1)C(=O)N[C@H](C)C(=O)N[C@H](Cc1c[nH]cn1)C(=O)N[C@H](CCCNC(=N)N)C(=O)N[C@H](CCCCNC(=O)c1cccc(S(=O)(=O)F)c1)C(=O)N[C@H](Cc1ccc(O)cc1)C(=O)N[C@H](CO)C(=O)N[C@H](Cc1ccccc1)C(N)=O	Cd274 (Mus musculus, UniProt Q9EP73)	microscale thermophoresis		6 h, His-tagged protein	2.8 ± 3.3 µM
CC[C@H](CO)Nc1nc(NCc2ccc(-c3ccccn3)cc2)c2ncn(C(C)C)c2n1	PIP4K2B (Homo sapiens, UniProt P78356)	binding, competition affinity chromatography	SH-SY5Y cell extract		12.6 µM
CN[C@@H](Cc1c[nH]c2ccccc12)C(=O)O	N-methyl-L-tryptophan oxidase, reduced (solA, Escherichia coli, UniProt P40874)	spectral titration, anaerobic		pH 8.0, 25 °C	934 ± 218 µM
CSCC[C@H](NC(=O)[C@H](CC(=O)O)NC(=O)c1ccc2c(c1)C(=O)OC21c2ccc(N(C)C)cc2Oc2cc(N(C)C)ccc21)C(=O)N[C@@H](CO)C(=O)N[C@@H](CCCCN)C(=O)N[C@@H](CC(=O)O)C(=O)N[C@@H](CCC(=O)O)C(=O)N[C@@H](CO)C(=O)N[C@H](C(=O)N[C@@H](CC(=O)O)C(=O)N[C@@H](Cc1ccc(OP(=O)(O)O)cc1)C(=O)N[C@H](C(=O)N1CCC[C@H]1C(=O)N[C@@H](CCSC)C(=O)N[C@@H](CC(C)C)C(=O)N[C@@H](CC(=O)O)C(=O)N[C@@H](CCSC)C(=O)N[C@@H](CCCCN)C(=O)N[C@@H](CC(=O)O)C(=O)O)C(C)C)C(C)C	YES1 SH2 domain	binding			0.664 µM
N[C@@H](CO)C(=O)O	spt (Sphingomonas paucimobilis, UniProt Q93UV0, R378K)	binding			1200 µM
CC[C@H](C)[C@H](NC(=O)[C@H](Cc1ccc(OP(=O)(O)O)cc1)NC(=O)[C@H](CCC(=O)O)NC(=O)[C@@H]1CCCN1C(=O)[C@@H](NC(=O)[C@@H]1CCCN1C(=O)[C@H](CC(C)C)NC(=O)[C@H](Cc1ccccc1)NC(=O)[C@@H](NC(=O)[C@H](CC(=O)O)NC(=O)[C@H](CC(=O)O)NC(=O)c1ccc2c(c1)C(=O)OC21c2ccc(N(C)C)cc2Oc2cc(N(C)C)ccc21)[C@@H](C)O)C(C)C)C(=O)N[C@@H](CC(N)=O)C(=O)N[C@@H](CCC(N)=O)C(=O)N[C@@H](CO)C(=O)N[C@H](C(=O)N1CCC[C@H]1C(=O)N[C@@H](CCCCN)C(=O)N[C@@H](CC(=O)O)C(=O)O)C(C)C	YES1 SH2 domain	binding			0.337 µM
Cn1c2cccc(=O)c-2nc2ccccc21	Multidrug resistance operon repressor (mexR, Pseudomonas aeruginosa, UniProt P52003)	surface plasmon resonance		25 °C	5.17 µM

Some of these lines once more:
Compound	target	test	test system	setting	Kd
CN(CC(=O)O)C(=N)NP(=O)(O)O	CKMT1A (Homo sapiens, UniProt P12532, H99A)	microscale thermophoresis		pH 7.0, H61A mutant, no substrate	328 ± 201 µM
N[C@@H](CO)C(=O)O	spt (Sphingomonas paucimobilis, UniProt Q93UV0, R378K)	binding			1200 µM
